Published values collected from several papers.
Each line is one published result; not all experiments were run side by side. ± marks the error that the study gave. In brackets after ≈: the same amount, converted by molar mass.

| SMILES | organism | test | system | setting | scale | measurement | result |
| --- | --- | --- | --- | --- | --- | --- | --- |
| C[C@@](O)(C(F)F)[C@H](NC(=O)c1ccc(C#CC#CC2CC2)cc1)C(=O)NO | Enterobacteriaceae |  | ESBL, carbapenemase positive |  |  | MIC50 | 0.064 µg/mL |
| O=C(Cn1ccc(=O)c2ccccc21)N/N=C/c1cc(Br)c(O)c(Br)c1 | Tobacco mosaic virus | viral infectivity, in vivo plant |  | 100 µg/mL |  | inactivation activity | 0% |
| O=[N+]([O-])c1ccc(/C=N/N=C/c2ccc(OCc3ccccc3)cc2)o1 | Trypanosoma congolense |  | IL3000, mouse | intraperitoneal, 10 mg/kg daily for 7 days, from day 4 post-infection |  | day of death | 8 days post-infection |
| CS(=O)(=O)c1ccc(/C=N/NC(=O)Cn2ccc(=O)c3ccccc32)cc1 | Tobacco mosaic virus | viral infectivity, in vivo plant |  | 100 µg/mL |  | inactivation activity | 7 ± 1.9% |
| CN1CC(=O)N=C1N.C[C@H](CCC(=O)O)[C@H]1CC[C@H]2[C@@H]3[C@H](O)C[C@@H]4C[C@H](O)CC[C@]4(C)[C@H]3CC[C@]12C | Bacillus cereus |  | TISTR 035 | 1 mg per disc, 18 to 24 h, 37 °C, 6 mm disc |  | inhibition zone diameter | 12.4 ± 0.7 mm |
| C[C@@H]1C[C@H](Nc2ccccc2)c2cc(F)ccc2N1C(=O)c1ccc(N)cc1 | Aedes albopictus |  |  | 1 µM, 72 h, second-instar larvae | reference: Abbott-corrected control | mortality | 6 ± 6% |
| CCCCCCCCCC(=O)OCC1OC(n2cc(C)c(=O)[nH]c2=O)CC1N(C)C (centres unmarked) | coxsackievirus B4 | viral replication | HeLa |  |  | EC50 | > 230 nM |
| CC[C@@H](C)[C@@H](NC(=O)[C@@H](C)NC(=O)[C@@H](CCCCN)NC(=O)[C@@H](CC(C)C)NC(=O)[C@@H](C)NC(=O)[C@H](NC(=O)[C@@H](Cc1c[nH]cn1)NC(=O)[C@@H](CC(C)C)NC(=O)[C@H](NC(=O)[C@H](NC(=O)[C@@H](CCCCN)NC(=O)[C@@H](CCCCN)NC(=O)[C@@H](C)NC(=O)[C@@H](CO)NC(=O)[C@@H](CCCCN)NC(=O)[C@@H](Cc1ccccc1)NC(=O)[C@H](NC(=O)[C@@H](CCCCN)NC(=O)[C@@H](CC(C)C)NC(=O)[C@@H](Cc1ccccc1)NC(=O)[C@@H](CO)NC(=O)[C@@H](CCCCN)NC(=O)[C@@H](Cc1c[nH]c2ccccc12)NC(=O)[C@@H](CCCCN)NC(C)=O)[C@H](C)O)[C@H](C)O)C(C)C)[C@H](C)O)C(=O)N[C@H](CO)C(=O)N[C@H](CO)C(N)=O | Rhizopus microsporus |  | clinical isolate | 48 h, 30 °C |  | MIC50 | 6.3 µg/mL |
| COC(=O)C1=CO[C@@H](C)[C@@H]2Cn3ccc4c5ccccc5nc-4c3C[C@H]12 | Plasmodium falciparum | parasite growth, [3H]-hypoxanthine incorporation | C2B atovaquone-resistant |  | reference: C2B over 3D7 | resistance index | < 1 |
| CC(=O)CCC1C(=O)NC(C(C)C)C(=O)NC(Cc2cc(O)cc(F)c2)C(=O)N2CCCC(N2)C(=O)OC(C(C)=CC=CC(=O)N2CCCCO2)CC=CC=CC(O)C(C)C1O (centres unmarked) | hepatitis B virus |  | HBV DNA transfected cells | 2 µM, day 3 | reference: untreated | HBsAg level | 8.8% |
| COc1ccc(-n2c(SCC#N)nnc2[C@H](Cc2ccccc2)NC(=O)Cc2c(C)[nH]c3ccccc23)cc1 | HIV-2 |  | MT-4, wild type |  | reference: CC50 over EC50 | selectivity index | 36 |
| Oc1ccc(/C=C/c2ccc(O)cc2)cc1 | Streptococcus mutans | growth |  |  |  | MIC50 | 854 ± 58 µM |
| CC[C@H](C)[C@H](NC(=O)[C@H](CCCCN)NC(=O)[C@H](CCCCN)NC(=O)[C@H](CC(C)C)NC(=O)[C@H](CCCCN)NC(=O)[C@H](CCC(=O)O)NC(=O)[C@H](CCCCN)NC(=O)[C@@H](NC(=O)[C@H](CCCCN)NC(=O)[C@H](CC(N)=O)NC(=O)[C@H](CCCNC(=N)N)NC(=O)[C@H](Cc1ccccc1)NC(=O)[C@H](CCCCN)NC(=O)[C@H](CCCNC(=N)N)NC(=O)[C@H](CC(C)C)NC(=O)[C@H](CCCNC(=N)N)NC(=O)[C@H](CCCCN)NC(=O)[C@H](CCCNC(=N)N)NC(=O)[C@@H](N)CC(C)C)[C@@H](C)CC)C(=O)NCC(=O)N[C@@H](CCC(N)=O)C(=O)N[C@@H](CCCCN)C(=O)N[C@H](C(=O)N[C@@H](CCC(N)=O)C(=O)NCC(=O)N[C@@H](Cc1ccccc1)C(=O)N[C@H](C(=O)N1CCC[C@H]1C(=O)N[C@@H](CCCCN)C(=O)N[C@@H](CC(C)C)C(=O)O)C(C)C)[C@@H](C)CC | Streptococcus mutans | inhibition zone | ATCC 1.2499 | LB agar, overnight |  | lethal concentration | 0.73 µM |
| O=C1/C(=N\NC(=S)NN=Cc2cccs2)c2ccccc2N1Cc1ccccc1 | Coxsackievirus B4 | viral replication | HeLa |  |  | EC50 | > 4000 nM |
| C[n+]1ccc(/C=C/c2ccc(O)c(O)c2)c2ccccc21 | Streptococcus mutans | microbial growth |  |  |  | MIC50 | > 400 µM |
| Nc1ncnc2c1c(-c1ccccn1)cn2[C@@H]1O[C@H](CO)[C@@H](O)[C@H]1O | Trypanosoma congolense | parasite growth, resazurin | 6C3 diminazene-resistant | 48 h plus 24 h resazurin |  | EC50 | 56 ± 13 nM |
| CC[C@H](C)[C@H](NC(=O)[C@H](CCCNC(=N)N)NC(=O)[C@@H]1CCCN1C(=O)[C@@H](NC(=O)[C@H](CO)NC(=O)[C@H](CCCCN)NC(=O)[C@H](CO)NC(=O)[C@H](CC(C)C)NC(=O)[C@H](CCCCN)NC(=O)[C@H](CC(C)C)NC(=O)[C@H](Cc1ccccc1)NC(=O)[C@H](Cc1ccccc1)NC(=O)CNC(=O)[C@@H]1CCCN1C(=O)[C@@H](NC(=O)[C@H](CCC(=O)O)NC(=O)[C@@H](N)CC(=O)O)[C@@H](C)O)C(C)C)C(N)=O | Aedes aegypti |  | pharate pupae | injection, 10 fmol, about 12 h before ecdysis |  | animals showing premature ecdysis | ~20% |
| C[C@@H]1C[C@H](Nc2ccccc2)c2cc(F)ccc2N1C(=O)c1ccc([N+](=O)[O-])cc1 | Aedes albopictus |  |  | 1 µM, 72 h, second-instar larvae | reference: Abbott-corrected control | mortality | 34 ± 23% |

| SMILES | organism | test | system | setting | scale | measurement | result |
| --- | --- | --- | --- | --- | --- | --- | --- |
| CC(C)C[C@H](NC(=O)[C@H](CO)NC(=O)[C@H](Cc1c[nH]c2ccccc12)NC(=O)[C@H](Cc1c[nH]c2ccccc12)NC(=O)[C@H](CC(=O)O)NC(=O)[C@H](CC(C)C)NC(=O)CN)C(=O)O | Streptococcus mutans | crystal violet | UA159 | 2 µM, 24 h, with: CSP-18 15 nM | reference: untreated | biofilm formation | no effect |
| CN1C(=O)[C@@H]2NC(=O)[C@@H]3NC(=O)[C@@H](c4ccc(O)cc4)NC(=O)[C@H](NC(=O)C(N)c4ccc(O)cc4)Cc4c[nH]c5cc(ccc45)-c4cc3cc(c4O)Oc3ccc(cc3)C[C@H]1C(=O)N[C@@H](C(=O)O)c1ccc(O)c(c1)Oc1ccc2cc1 (some centres unmarked) | Enterococcus faecium |  | WCC 0534, VRE-A |  |  | MIC | 4 to 8 µg/mL (≈ 3.57 to 7.14 µM) |
| NNC(=O)/C=C/c1ccc(N)cc1 | Aedes aegypti | larvicidal activity | third instar larvae | 48 h |  | LC90 | 259 ppm |
| Nc1ccn(C[C@@H](CO)OCP(=O)(O)OCCCS(=O)(=O)CCCCCCCCCCCCC2CCC2)c(=O)n1 | Murid betaherpesvirus 1 | qPCR | MEF, Smith |  | reference: CC50 over EC50 | selectivity index | > 3570 |
| CC(=O)N[C@@H]1[C@@H](O)[C@H](O)[C@@H](CO)O[C@H]1[Se][Se][C@@H]1O[C@H](CO)[C@@H](O)[C@H](O)[C@H]1NC(C)=O | Trypanosoma brucei | parasite growth, flow cytometry |  | 5 µM, 24 h |  | viability | 120% |
| CCn1c2ccccc2c2cc(/C=N/NC(=O)Cn3ccc(=O)c4ccccc43)ccc21 | Phytophthora capsici | microbial growth |  | 50 µg/mL |  | inhibition | 26.2% |
| CC[C@H](C)[C@H](NC(=O)[C@H](CCCCN)NC(=O)[C@H](CCCCN)NC(=O)[C@H](CC(C)C)NC(=O)[C@H](CCCCN)NC(=O)[C@H](CCC(=O)O)NC(=O)[C@H](CCCCN)NC(=O)[C@@H](NC(=O)[C@H](CCCCN)NC(=O)[C@H](CC(N)=O)NC(=O)[C@H](CCCNC(=N)N)NC(=O)[C@H](Cc1ccccc1)NC(=O)[C@H](CCCCN)NC(=O)[C@H](CCCNC(=N)N)NC(=O)[C@H](CC(C)C)NC(=O)[C@H](CCCNC(=N)N)NC(=O)[C@H](CCCCN)NC(=O)[C@H](CCCNC(=N)N)NC(=O)[C@H](CC(C)C)NC(=O)[C@@H](N)CCCNC(=N)N)[C@@H](C)CC)C(=O)NCC(=O)N[C@@H](CCC(N)=O)C(=O)N[C@@H](CCCCN)C(=O)N[C@H](C(=O)N[C@@H](CCC(N)=O)C(=O)NCC(=O)N[C@@H](Cc1ccccc1)C(=O)N[C@H](C(=O)N1CCC[C@H]1C(=O)N[C@@H](CCCCN)C(=O)N[C@@H](CC(C)C)C(=O)N[C@@H](CCC(N)=O)C(=O)N1CCC[C@H]1C(=O)N[C@@H](CO)C(=O)N[C@@H](CCCCN)C(=O)N[C@@H](CCC(N)=O)C(=O)N[C@@H](CO)C(=O)O)C(C)C)[C@@H](C)CC | Streptococcus mutans | inhibition zone | ATCC 1.2499 | LB agar, overnight |  | lethal concentration | 4.97 µM |
| CCC(NC(=O)NNS(=O)(=O)c1ccc(C)cc1)(C(F)(F)F)C(F)(F)F | human betaherpesvirus 5 |  | MRC5 | concentration not given |  | antiviral activity | inactive |
| CC[C@H](C)[C@H](N)C1=N[C@H](C(=O)N[C@@H](CC(C)C)C(=O)N[C@H](CCC(=O)O)C(=O)N[C@H](C(=O)N[C@H]2CCCCNC(=O)[C@H](CC(N)=O)NC(=O)[C@@H](CC(=O)O)NC(=O)[C@H](Cc3c[nH]cn3)NC(=O)[C@@H](Cc3ccccc3)NC(=O)[C@H]([C@@H](C)CC)NC(=O)[C@@H](CCCN)NC2=O)[C@@H](C)CC)CS1 | Enterococcus faecium |  | vanA clinical isolates | with: ZnSO4 0.3 mM |  | MIC50 | 8 µg/mL |
| CC[C@H](C)[C@H](NC(=O)[C@H](CO)NC(=O)[C@H](CO)NC(=O)[C@H](Cc1ccccc1)NC(=O)CN)C(=O)N[C@@H](Cc1ccccc1)C(=O)N[C@@H](CCCNC(=N)N)C(=O)NCC(=O)N[C@H](C(=O)N[C@@H](C)C(=O)N[C@@H](CCCCN)C(N)=O)C(C)C | Escherichia coli |  | ATCC 8739 | with: 1 mM MgCl2 |  | MBC | > 128 µM |
| C=CC(C)(C)c1c(O)cc2c(c1O)C(=O)CC(c1ccccc1)O2 (centres unmarked) | Trypanosoma congolense | resazurin viability | diminazene-resistant clone 6C3 |  | reference: 6C3 over IL3000 | resistance factor | 0.86 |
| COc1ccc(Br)cc1/C=N/NC(=O)Cn1ccc(=O)c2ccccc21 | Phytophthora capsici | microbial growth |  | 50 µg/mL |  | inhibition | 2.4% |
| Nc1ccn(C[C@@H](CO)OCP(=O)(O)OCCCS(=O)(=O)CCCCCCCCCCCCCC2CCC2)c(=O)n1 | Murid betaherpesvirus 1 | qPCR | MEF, Smith |  | reference: CC50 over EC50 | selectivity index | > 2170 |
| CCc1ccc(C(=O)N2c3ccc(F)cc3[C@@H](Nc3ccccc3)C[C@H]2C)cc1 | Aedes albopictus |  |  | 1 µM, 72 h, second-instar larvae | reference: Abbott-corrected control | mortality | 91 ± 2% |
| OC[C@H]1O[C@@H](O[C@H]2[C@H](O)[C@@H](O)[C@H](SSCc3cccc4c(CSS[C@@H]5O[C@H](CO)[C@@H](O[C@@H]6O[C@H](CO)[C@H](O)[C@H](O)[C@H]6O)[C@H](O)[C@H]5O)cccc34)O[C@@H]2CO)[C@H](O)[C@@H](O)[C@H]1O | Trypanosoma brucei | parasite growth, flow cytometry |  | 5 µM, 24 h |  | viability | 93.5% |
| C[C@@H]1C[C@H](Nc2ccccc2)c2cc(F)ccc2N1C(=O)c1ccc(C(F)(F)F)c(F)c1 | Aedes albopictus |  |  | 1 µM, 72 h, second-instar larvae | reference: Abbott-corrected control | mortality | 77 ± 3% |
| CC[C@@H](C)[C@@H](NC(=O)[C@@H](CC(C)C)NC(=O)[C@@H](CCCCN)NC(=O)[C@@H](CC(C)C)NC(=O)[C@@H](CC(C)C)NC(=O)[C@H](NC(=O)[C@@H](Cc1c[nH]cn1)NC(=O)[C@@H](CC(C)C)NC(=O)[C@@H](CCCCN)NC(=O)[C@H](NC(=O)[C@@H](CCCCN)NC(=O)[C@@H](CCCCN)NC(=O)[C@@H](CC(C)C)NC(=O)[C@@H](CO)NC(=O)[C@@H](CCCCN)NC(=O)[C@@H](Cc1ccccc1)NC(=O)[C@H](NC(=O)[C@@H](CCCCN)NC(=O)[C@@H](CC(C)C)NC(=O)[C@@H](Cc1ccccc1)NC(=O)[C@@H](CO)NC(=O)[C@@H](CCCCN)NC(=O)[C@@H](Cc1c[nH]c2ccccc12)NC(=O)[C@@H](CCCCN)NC(C)=O)[C@H](C)O)[C@H](C)O)[C@H](C)O)C(=O)N[C@H](CO)C(=O)N[C@H](CO)C(N)=O | ascomycota fungi |  |  | three species |  | MIC50 geometric mean | 7.2 µg/mL (≈ 2.29 µM) |
